Measurements from different studies.
Each line is one published result; not all experiments were run side by side.
BRAF V600E: Serine/threonine-protein kinase B-raf (BRAF, Homo sapiens, UniProt P15056, V600E)
BRAF: Serine/threonine-protein kinase B-raf (BRAF, Homo sapiens, UniProt P15056)

`CC(C)=CC1OC(C)(C)C2C=C3C(=O)C(Cl)=CC(O)C3C3C(O)C4OC4C(=O)C132` (stereo not shown) has a remaining binding of 72% (BRAF V600E; cell-free assay, competition with immobilised ligand; 10 µM).
`CC(=O)N1c2ccc(-c3ccc(CNC(=O)c4cn5cc(-c6cnc(N)nc6)nc(N6CCOCC6)c5n4)cc3)cc2CC[C@@H]1C` has a remaining binding of 61% (BRAF V600E; KINOMEscan; 10 µM).
`CNS(=O)(=O)Nc1nccc(Cc2c(C)c3ccc(Oc4ncccc4F)cc3oc2=O)c1F` has a remaining binding of 77% (BRAF; cell-free assay, competition with immobilised ligand; 10 µM).
The remaining binding of `C=CC(=O)N1CCc2ccc(-n3c(=O)ccc4cnc5ccc(-c6cnn(C)c6)cc5c43)cc21` is reported as 100% (BRAF; KINOMEscan; 1 µM; baseline: DMSO control).
`Cc1ccc(C(=O)Nc2cccc(C(F)(F)F)c2)cc1Nc1cncc(C(N)=O)c1` has a remaining binding of 0.15% (BRAF V600E; binding, competition with immobilised ligand; 1 µM).
With `Cc1ccc(-c2c(/C=C(\C#N)C(=O)NC(C)C)n(CCCO)c3ncnc(N)c23)cc1` the remaining binding was 62% (BRAF V600E; cell-free assay, competition with immobilised ligand; 1 µM).
With `CN1CCN(Cc2ccc(NC(=O)c3cccc(C#Cc4cnc(N)c5ncccc45)c3)cc2C(F)(F)F)CC1` the remaining binding was 3.9% (BRAF; cell-free assay, competition with immobilised ligand; 50 nM).
`COc1cc(Nc2nccc(-c3cnn4nc(OC)ccc34)n2)cc(C(F)(F)F)c1` gave a remaining binding of 87% (BRAF; binding, competition with immobilised ligand; 1 µM).
For `C=CC(=O)N1CCCC(n2c(=O)c3ncccc3n(Cc3ccc(Oc4ccccc4)cc3)c2=O)C1` (stereo not shown), the remaining binding was 88% (BRAF; cell-free assay, competition with immobilised ligand; 1 µM).
For `COc1c(Cl)cccc1Nc1c(-c2ccncc2C#C[C@@]2(C)CCCN2C(=O)/C=C/CN(C)C)[nH]c2c1C(=O)NCC2`, the remaining binding was 14% (BRAF; cell-free assay, competition with immobilised ligand; 3 µM).
`Cc1cnc2nc1Nc1cccc(c1)COC/C=C/COCc1cc(ccc1OCCN1CCOCC1)N2` gave a remaining binding of 100% (BRAF V600E; binding; 0.1 µM).
`Nc1ncc2c(n1)-c1c([nH]c3ccc(C4=CCOCC4)cc13)CCC2` has a remaining binding of 100% (BRAF V600E; binding, competition with immobilised ligand; 1 µM).
For `CNC1C[S+]2CC[S+]3CC[S+](C1)[Ru-4]321([N]=C=S)[n]2c3ccc(OC)cc3c3c4c(c5cc(F)c[n+]1c5c32)C(=O)NC4=O` (stereo not shown), the remaining binding was 95% (BRAF V600E; KinomeScan; 0.1 µM; baseline: untreated).
With `COc1ccc(NC(=O)Nc2ccc3c(c2)C(=O)N(C(C)CO)CC(C)C(CN(C)Cc2ccc4c(c2)OCO4)O3)cc1` (stereo not shown) the remaining binding was 70% (BRAF; binding, competition with immobilised ligand; 10 µM).
The remaining binding of `CNC(=O)C1CCN(c2cc(C)c(F)cc2NC(=O)c2ccc(-c3cc(O)ccc3C)c(C)c2)CC1` is reported as 91% (BRAF; binding, competition with immobilised ligand; 1 µM).
`CCN1CCN(Cc2ccc(C(=O)Nc3ccc(C)c(NCc4cnc5[nH]ccc5c4OC)c3)cc2C(F)(F)F)CC1` has a remaining binding of 4% (BRAF V600E; binding, competition with immobilised ligand; 1 µM).

Repeated from above:
`CC(=O)N1c2ccc(-c3ccc(CNC(=O)c4cn5cc(-c6cnc(N)nc6)nc(N6CCOCC6)c5n4)cc3)cc2CC[C@@H]1C` has a remaining binding of 61% (BRAF V600E; KINOMEscan; 10 µM).
`Nc1ncc2c(n1)-c1c([nH]c3ccc(C4=CCOCC4)cc13)CCC2` has a remaining binding of 100% (BRAF V600E; binding, competition with immobilised ligand; 1 µM).
